{"data": "Measurements from different studies", "cell line": "CCRF-CEM"}
{"Structure (SMILES)": "CN1CCN(c2ccc3[nH]c(-c4ccc5[nH]c(-c6ccc(C(F)(F)F)cc6)nc5c4)nc3c2)CC1", "test": "cell growth, NCI-60 SRB", "setting": "10 µM, 48 h", "endpoint": "growth percent", "result": "21.2%"}
{"Structure (SMILES)": "Cc1cc(C)n(C(=S)[S][Au][PH](CCCCCC[PH]([Au][S]C(=S)n2nc(C)cc2C)(c2ccccc2)c2ccccc2)(c2ccccc2)c2ccccc2)n1", "test": "cell growth, NCI-60 screen", "setting": "leukaemia", "endpoint": "log TGI", "result": "-5.72 log10 M"}
{"Structure (SMILES)": "Cc1ccc(-c2cc3ccccc3c(N)n2)cc1", "test": "annexin V-FITC/PI flow cytometry, measured: annexin V+ PI-", "setting": "5.0 µM, 72 h", "endpoint": "early apoptotic cells", "result": "10.2%"}
{"Structure (SMILES)": "CCCCN1CCN(c2ccc3[nH]c(-c4ccc5[nH]c(-c6ccc(OCC)cc6)nc5c4)nc3c2)CC1", "test": "cell growth, NCI-60 SRB", "setting": "10 µM, 48 h", "endpoint": "growth percent", "result": "20.5%"}
{"Structure (SMILES)": "Cc1cc(=O)[nH]n1-c1nc(-c2ccc(Cl)cc2)c2c(NC(=O)c3ccccc3)nnc-2[nH]1", "test": "NCI60 SRB", "setting": "10 µM", "endpoint": "growth percent", "result": "87.2%"}
{"Structure (SMILES)": "CCCCN1CCN(c2ccc3nc(-c4ccc5nc(-c6cc(OC)ccc6OC)[nH]c5c4)[nH]c3c2)CC1", "test": "cell growth, NCI-60 SRB", "setting": "10 µM, 48 h", "endpoint": "growth percent", "result": "96.4%"}
{"Structure (SMILES)": "CCOC(=O)CSc1nc(-c2ccc(Cl)cc2)c2c(NC(=O)c3ccccc3)nnc-2[nH]1", "test": "NCI60 SRB", "setting": "10 µM", "endpoint": "growth percent", "result": "98.5%"}
{"Structure (SMILES)": "O=c1ccn(Cc2cn(-c3c4ccccc4nc4ccccc34)nn2)c(=O)[nH]1", "test": "NCI60 single dose", "setting": "10 µM", "endpoint": "growth", "result": "83.9%"}
{"Structure (SMILES)": "CCCN1CCN(c2ccc3[nH]c(-c4ccc5[nH]c(-c6ccc(C(F)(F)F)cc6)nc5c4)nc3c2)CC1", "test": "cell growth, NCI-60 SRB", "setting": "10 µM, 48 h", "endpoint": "growth percent", "result": "-21.1%"}
{"Structure (SMILES)": "Cc1cc(=O)[nH]c(=O)n1Cc1cn(-c2c3ccccc3nc3ccccc23)nn1", "test": "NCI60 single dose", "setting": "10 µM", "endpoint": "growth", "result": "64.7%"}
{"Structure (SMILES)": "O=C(Nc1nnc2n3c(nc(-c4ccc(Cl)cc4)c1-2)SCC3=O)c1ccccc1", "test": "NCI60 SRB", "setting": "10 µM", "endpoint": "growth percent", "result": "98.7%"}
{"Structure (SMILES)": "Cc1cc(=O)[nH]c(=O)n1Cc1cn(-c2cc3ccccc3oc2=O)nn1", "test": "NCI60 single dose", "setting": "10 µM", "endpoint": "growth", "result": "102%"}
{"Structure (SMILES)": "CSc1nc(-c2ccc(Cl)cc2)c2c(NC(=O)c3ccccc3)nnc-2[nH]1", "test": "NCI60 SRB", "setting": "10 µM", "endpoint": "growth percent", "result": "93.1%"}
{"Structure (SMILES)": "CCCN1CCN(c2ccc3[nH]c(-c4ccc5[nH]c(-c6ccc(OCC)c(OCC)c6)nc5c4)nc3c2)CC1", "test": "cell growth, NCI-60 SRB", "setting": "10 µM, 48 h", "endpoint": "growth percent", "result": "5.88%"}
{"Structure (SMILES)": "O=c1ccn(Cc2cn(-c3cc4ccccc4oc3=O)nn2)c(=O)[nH]1", "test": "NCI60 single dose", "setting": "10 µM", "endpoint": "growth", "result": "106%"}
{"Structure (SMILES)": "CCCCN1CCN(c2ccc3[nH]c(-c4ccc5[nH]c(-c6ccc(OCC)c(OCC)c6)nc5c4)nc3c2)CC1", "test": "cell growth, NCI-60 SRB", "setting": "10 µM, 48 h", "endpoint": "growth percent", "result": "-0.37%"}
{"Structure (SMILES)": "Nc1nc(S)nc(O)c1N=Cc1cn(-c2ccccc2)nc1-c1ccc(Cl)cc1", "test": "cytotoxicity, differential nuclear staining", "endpoint": "CC20", "result": "6.06 µM"}
{"Structure (SMILES)": "O=C(Nc1nnc2n3c(Cc4ccccc4)n[nH]c3nc(-c3ccc(Cl)cc3)c1-2)c1ccccc1", "test": "NCI60 SRB", "setting": "10 µM", "endpoint": "growth percent", "result": "96.1%"}
{"Structure (SMILES)": "Cn1cncc1C1=CN(c2ncnc3[nH]cnc23)CCS1", "setting": "leukaemia cell line", "endpoint": "TGI", "result": "102 µM"}
{"note": "Excerpt of the above:"}
{"Structure (SMILES)": "Cc1cc(=O)[nH]c(=O)n1Cc1cn(-c2c3ccccc3nc3ccccc23)nn1", "test": "NCI60 single dose", "setting": "10 µM", "endpoint": "growth", "result": "64.7%"}
{"Structure (SMILES)": "O=C(Nc1nnc2n3c(nc(-c4ccc(Cl)cc4)c1-2)SCC3=O)c1ccccc1", "test": "NCI60 SRB", "setting": "10 µM", "endpoint": "growth percent", "result": "98.7%"}
